Results of several laboratories.
Compare with care: the assays were run in different laboratories. Several values in a cell are separate wells, animals, samples, runs or records. ± marks the error that the study gave.
UniProt Q16512, sequence (whole entry, looked up): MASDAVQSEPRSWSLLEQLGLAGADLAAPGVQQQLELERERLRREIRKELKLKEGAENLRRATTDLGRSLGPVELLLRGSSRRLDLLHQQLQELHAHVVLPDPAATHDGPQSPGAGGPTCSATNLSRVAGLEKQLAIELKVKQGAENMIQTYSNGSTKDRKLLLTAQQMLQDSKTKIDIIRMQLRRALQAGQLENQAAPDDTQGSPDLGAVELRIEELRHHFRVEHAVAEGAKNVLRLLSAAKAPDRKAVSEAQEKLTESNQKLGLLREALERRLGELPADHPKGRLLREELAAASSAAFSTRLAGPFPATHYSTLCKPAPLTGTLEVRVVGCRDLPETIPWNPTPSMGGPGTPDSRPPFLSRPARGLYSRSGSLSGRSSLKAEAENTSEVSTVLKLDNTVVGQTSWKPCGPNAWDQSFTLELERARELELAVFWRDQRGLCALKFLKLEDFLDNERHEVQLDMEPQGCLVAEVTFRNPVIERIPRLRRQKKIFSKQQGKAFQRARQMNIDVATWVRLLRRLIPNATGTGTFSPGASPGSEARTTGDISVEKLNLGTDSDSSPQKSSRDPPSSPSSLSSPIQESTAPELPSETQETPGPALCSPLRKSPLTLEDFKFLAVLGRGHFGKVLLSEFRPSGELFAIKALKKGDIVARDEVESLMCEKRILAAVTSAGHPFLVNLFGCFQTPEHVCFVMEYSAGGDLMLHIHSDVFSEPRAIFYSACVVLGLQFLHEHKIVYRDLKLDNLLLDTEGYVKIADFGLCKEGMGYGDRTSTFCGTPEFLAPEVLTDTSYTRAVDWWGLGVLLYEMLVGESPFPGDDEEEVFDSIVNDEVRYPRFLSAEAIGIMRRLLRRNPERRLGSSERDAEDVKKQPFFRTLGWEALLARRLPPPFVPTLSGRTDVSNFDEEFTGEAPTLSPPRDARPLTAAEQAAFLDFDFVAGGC

`C=C(NC(=O)c1csc(-c2nc3c(cc2O)-c2nc(cs2)C(=O)NC(C(C)O)C(=O)NC(=C(C)OC)c2nc(cs2)C(=O)NC2c4nc(cs4)C(=O)NC(COC(=O)c4c5c6c(cccc6n4O)COC(=O)C(OC4CC(C)(O)C(N(C)C)C(C)O4)C2OC5)c2nc-3cs2)n1)C(N)=O` (stereo not drawn) — result for “volume of distribution”: 19.9 L/kg (Sprague-Dawley rat, female, plasma; intravenous infusion, 6 mg/kg single dose).
For `COC1CN([C@H]2CC[C@H]([C@@]3(C)Oc4c(Cl)cc(C(=O)NCc5c(SC)cc(C)[nH]c5=O)c(C)c4O3)CC2)C1`, “log2 fold change” read 0.44 (RNA-seq, measured: TSKU mouse homolog; mouse, HT-1376 xenograft, whole blood; dose not given; relative to: vehicle).
`CN1CCCNC(=O)c2cccc(c2)C(=O)NCCCN(C)CCCNc2cccc3c2C(=O)c2cccc(c2C3=O)NCCC1`: “log2 fold change” -0.826 (SAS; RNA-Seq, measured: BAZ1B mRNA; 1 µM, 6 h; relative to: untreated cells).
`CNS(=O)(=O)Nc1nccc(Cc2c(C)c3ccc(Oc4ncccc4F)cc3oc2=O)c1F` has an IC50 of over 1000 nM (EFO-27; cell viability; 7 days).
With `Cc1nn(-c2cccc(N)c2)c(=O)c2cnc(Nc3ccc(N4CCNCC4)cc3)nc12` the IC50 was over 10000 nM (Serine/threonine-protein kinase N1 (PKN1, Homo sapiens, UniProt Q16512); enzyme activity, inhibitor).
For `O=S(=O)(N[C@H]1CCO[C@@H](C2c3ccc(F)cc3CCc3cc(F)ccc32)C1)c1ccc(OC(F)(F)F)cc1`, “cleaved caspase 9 level” read “increased” (D341; immunoblot; concentration not given, 72 h).
`CC1(C)OB(c2ccc(COC(=O)N(Cc3cccc(CN4CCCCC4)c3)[c-]3cccc3)cc2)OC1(C)C.[Fe+2].c1cc[cH-]c1` has a mRNA level of 199 ± 44.2 (A2780; qPCR, measured: CHOP; 1 µM, 24 h, unit not given; relative to: untreated).
With `CC[C@H](NC(=O)[C@H](CC(C)C)NC(=O)[C@H](CC(=O)O)NC(C)=O)C(=O)N[C@@H](CC(=O)O)C(=O)COC(=O)c1c(C)cccc1C` the cell lysis was 91.3% and 99% (THP-1 cells, LPS-primed; pyroptosis, LDH release; 25 µM, LPS 1 µg/mL, 4 h, added: nigericin 5 µM, 2 h).
For `C=CC(=O)N1[C@H](c2ccc3c(c2)OCO3)c2[nH]c3ccccc3c2C[C@@H]1C(=O)N1CCN(C)CC1`, the relative co-enrichment was 113% (human cyclin E1 N112C-3xFLAG:CDK2; co-IP with TMT proteomics, measured: PCMT1; concentration not given, P22061; relative to: wild type DMSO).
Under “percent of control”, `C=CC(=O)Nc1cccc(Cn2ncc3cnc(Nc4cnn(CCOC)c4)nc32)c1` is recorded as 100% (PRKCQ human; binding, KINOMEscan; 100 nM; lower = stronger binding).
`COC1CCN(C(=O)/C=C/c2nn(Cc3cccc(C(F)(F)F)c3)c3nc(N)ncc23)CC1` gave an EC50 of 1670 nM (FLO-1; cell growth or viability, resazurin; 5 days).
`CN(C12CCCC(C)(CCC3C1CC3(C)C)C2)S(=O)(=O)c1ccc(N)cc1` (stereo not drawn) has an inhibition of under 50% (HT-29; cell growth or viability, CCK-8; 10 µM).
For `Cc1nc2ccc(Br)cc2c(=O)n1N`, the viability was 62.9% (LoVo; cell growth or viability, LDH; 200 µg/mL, 24 h).
Under “log2 fold change”, `Cc1ncsc1-c1ccc(C(C)NC(=O)C2CC(O)CN2C(=O)C(NC(=O)CCCCCCCCCCN2CCCC(Nc3ncc(Cl)c(Nc4ccccc4S(=O)(=O)C(C)C)n3)C2)C(C)(C)C)cc1` (stereo not drawn) is recorded as -1.22 (22Rv1; RNA-seq, measured: MIER2 mRNA; concentration not given; relative to: DMSO).
Under “mean growth percent”, `O=C(C[Se]C(=O)c1ccccc1Nc1ccccc1)Nc1cccc(C(F)(F)F)c1` is recorded as -81.6% (NCI60 leukemia subpanel; cell growth; 10 µM, 48 h, one-dose).
Under “early apoptotic cells”, `Cc1cc(Cl)cc(-c2ccnc3cc(CN4C(=O)C5C(C4=O)C5(C)C)sc23)c1C[C@@H]1CNCCO1` (stereo partly drawn) is recorded as 19.4% and 21.1% and 27% (CHP-212 parental; annexin V/PI flow cytometry; 0.3 µM, 48 h).
For `O=C(c1ccc(C2CCCCC2)cc1)N1CCC(F)CC1`, the hepatic clearance was 46 mL/min/kg (hepatocyte stability; cryopreserved rat hepatocytes; 1 µM).
The inhibition of `CC12CCCC(NS(=O)(=O)c3ccccn3)(C1)C1CC(C)(C)C1CC2` (stereo not drawn) is reported as 77.2% (HT-29; cell growth or viability, CCK-8; 50 µM).
For `C=CCc1c(O)cc2c(c1O)C(=O)CC(c1ccc(O)cc1)O2` (stereo not drawn), the inhibition was 3.43% (HeLa; cell growth or viability, MTT; 12.5 µM, 48 h).
`CCN(C(=O)c1cc(F)ccc1Oc1nncnc1N1CCC2(C1)CN([C@H](CCCN(C)CCOC)C(C)C)C2)C(C)C` has a GI50 of over 10000 nM (LoVo; cell growth or viability; 7 days).
`O=C(COCC(F)F)Nc1ccc([C@H]2[C@@H](F)[C@@H](F)C[C@@H](F)[C@H]2F)cc1` has a hepatic clearance of 84 mL/min/kg (hepatocyte stability; cryopreserved mouse hepatocytes; 1 µM).
`C[C@@H]1CC[C@@H]([C@@](O)(COCc2ccccc2)Cn2cnc3ccccc32)[C@H](OCc2ccccc2)C1` has an inhibition of 90.4% (A2780; cell growth or viability, MTT; 30 µM, 72 h).
For `CCN(CC)CC(=O)Nc1cccc(-n2cc(-c3ccc4ccc(-c5cn(-c6cccc(NC(=O)CN(CC)CC)c6)nn5)cc4c3)nn2)c1`, the fold regulation was -1.15 (RCC4; PCR angiogenesis array, measured: SERPINF1; 5 x IC50, 2 h, normoxia; relative to: untreated).
With `Nc1ncc(-c2cc(-c3cnn(CC(F)(F)F)c3)ncc2F)nc1C(=O)NC1CNCC(F)C1` (stereo not drawn) the remaining binding was 79% (SRPK3; KINOMEscan; 1 µM; relative to: DMSO control).

A few entries again:
For `Cc1nc2ccc(Br)cc2c(=O)n1N`, the viability was 62.9% (LoVo; cell growth or viability, LDH; 200 µg/mL, 24 h).
Under “log2 fold change”, `Cc1ncsc1-c1ccc(C(C)NC(=O)C2CC(O)CN2C(=O)C(NC(=O)CCCCCCCCCCN2CCCC(Nc3ncc(Cl)c(Nc4ccccc4S(=O)(=O)C(C)C)n3)C2)C(C)(C)C)cc1` (stereo not drawn) is recorded as -1.22 (22Rv1; RNA-seq, measured: MIER2 mRNA; concentration not given; relative to: DMSO).
Under “mean growth percent”, `O=C(C[Se]C(=O)c1ccccc1Nc1ccccc1)Nc1cccc(C(F)(F)F)c1` is recorded as -81.6% (NCI60 leukemia subpanel; cell growth; 10 µM, 48 h, one-dose).
Under “early apoptotic cells”, `Cc1cc(Cl)cc(-c2ccnc3cc(CN4C(=O)C5C(C4=O)C5(C)C)sc23)c1C[C@@H]1CNCCO1` (stereo partly drawn) is recorded as 19.4% and 21.1% and 27% (CHP-212 parental; annexin V/PI flow cytometry; 0.3 µM, 48 h).
